# Results collected from several papers.
# Protocols differ between the studies behind these lines.
# Organism: Escherichia coli
Compound,assay,system,setting,MIC
Cc1ccc2nc(C)c(C(=O)C(=O)N(C)C)n2c1,"microbial growth, broth dilution",,,> 128 µM
CC[C@H](C)[C@H](NC(=O)[C@@H](NC(=O)[C@H](CCCCN)NC(=O)[C@H](CCCCN)NC(=O)[C@@H](NC(=O)[C@H](Cc1c[nH]c2ccccc12)NC(=O)[C@H](CCCCN)NC(=O)[C@@H](NC(=O)[C@H](CC(C)C)NC(=O)[C@H](CCCCN)NC(=O)[C@H](CCCCN)NC(=O)[C@@H](N)C(C)C)[C@@H](C)CC)[C@@H](C)CC)C(C)C)C(N)=O,,,"24 h, 37 °C, Mueller-Hinton broth, NaCl 150 mM",64 µM
CC[C@H](C)[C@H](NC(=O)[C@@H](CCCNC(=N)N)NC(=O)[C@H](CCCNC(=N)N)NC(=O)[C@H](Cc1ccc(O)cc1)NC(=O)[C@H](Cc1c[nH]c2ccccc12)NC(=O)[C@H](CCCNC(=N)N)NC(=O)[C@@H]1CCCN1C(=O)[C@H](CCCNC(=N)N)NC(=O)[C@@H]1CCCN1C(=O)[C@H](CC(C)C)NC(=O)[C@H](Cc1ccc(O)cc1)NC(=O)[C@@H]1CCCN1C(=O)[C@@H]1CCCN1C(=O)[C@H](CCCCN)NC(=O)[C@H](CC(=O)O)NC(=O)[C@@H](N)C(C)C)C(=O)N[C@@H](Cc1ccc(O)cc1)C(=O)N[C@@H](CC(N)=O)C(=O)N[C@H](CCCNC(=N)N)C(N)=O,broth microdilution,BW25113,"18 h, 37 °C, 25% MHB2",16 µg/mL
CC(C)C[C@@H](NC(=O)[C@H](NC(=O)[C@@H](CCCCN)NC(=O)[C@@H](CCCCN)NC(=O)[C@@H](CC(C)C)NC(=O)[C@@H](Cc1c[nH]c2ccccc12)NC(=O)[C@@H](CCCCN)NC(=O)[C@@H](CC(C)C)NC(=O)[C@@H](CC(C)C)NC(=O)[C@@H](CCCCN)NC(=O)[C@@H](CCCCN)NC(=O)[C@H](N)C(C)C)C(C)C)C(N)=O,,,"24 h, 37 °C, Mueller-Hinton broth, FeCl3 4 µM",16 µM
CC(C)C[C@H](NC(=O)[C@H](CCCCN)NC(=O)C1CCC=CCCC(NC(=O)[C@H](CCCCN)NC(=O)[C@@H](N)CC(C)C)C(=O)N[C@@H](CCCCN)C(=O)N[C@@H](CC(C)C)C(=O)N[C@@H](CCCCN)C(=O)N2CCC[C@@H]2C(=O)NCC(=O)N[C@@H](CCCCN)C(=O)N[C@@H](CC(C)C)C(=O)N[C@@H](CCCCN)C(=O)N1)C(N)=O (stereo partly shown),broth microdilution,"ATCC 25922, Mueller-Hinton broth","18 h, 37 °C",8 µM
CC[C@H](C)[C@H](NC(=O)[C@@H](CCCNC(=N)N)NC(=O)[C@H](CCCNC(=N)N)NC(=O)[C@H](CCCNC(=N)N)NC(=O)[C@H](Cc1c[nH]c2ccccc12)NC(=O)[C@H](CCCNC(=N)N)NC(=O)[C@@H]1CCCN1C(=O)[C@H](CCCNC(=N)N)NC(=O)[C@@H]1CCCN1C(=O)[C@H](CC(C)C)NC(=O)[C@H](Cc1ccc(O)cc1)NC(=O)[C@@H]1CCCN1C(=O)[C@@H]1CCCN1C(=O)[C@H](CCCCN)NC(=O)[C@H](CC(=O)O)NC(=O)[C@@H](N)C(C)C)C(=O)N[C@@H](Cc1ccc(O)cc1)C(=O)N[C@@H](CC(N)=O)C(=O)N[C@H](CCCNC(=N)N)C(N)=O,broth microdilution,ATCC 25922,"18 h, 37 °C, 25% MHB2",16 µg/mL
COc1c(NC(=O)c2ccc(NC(=O)c3ccc(NC(=O)[C@H](Cc4c[nH]nn4)NC(=O)c4ccc(NC(=O)/C(C)=C/c5ccc(O)cc5)cc4)cc3)c(OC)c2O)ccc(C(=O)O)c1O,"microbial growth, broth dilution",,,0.063 µg/mL
CC[C@H](C)[C@H](NC(=O)[C@H](CCCNC(=N)N)NC(=O)[C@@H](NC(=O)[C@@H]1CCCN1C(=O)[C@H](CCCNC(=N)N)NC(=O)[C@@H](NC(=O)[C@@H]1CCCN1C(=O)[C@H](CC(C)C)NC(=O)[C@H](CC(C)C)NC(=O)CNC(=O)[C@H](Cc1c[nH]cn1)NC(=O)[C@@H]1CCCN1C(=O)CNC(=O)[C@H](Cc1ccccc1)NC(=O)[C@H](CC(=O)O)NC(=O)[C@H](Cc1c[nH]c2ccccc12)NC(=O)[C@H](C)NC(=O)[C@@H](NC(=O)[C@H](C)N)[C@@H](C)O)[C@@H](C)CC)[C@@H](C)CC)C(=O)N[C@@H](CCCNC(=N)N)C(=O)N1CCC[C@H]1C(=O)N[C@@H](CC(C)C)C(=O)N[C@@H](CS)C(=O)NCC(=O)N[C@@H](CCCCN)C(=O)N[C@@H](CC(=O)O)C(=O)O,broth microdilution,"K88, Mueller-Hinton broth",37 °C,141 µg/mL
C[C@H](CS)C(=O)Nc1cccc(-c2nn[nH]n2)c1,,DH5a pET28-lacUV5-VIM-2,"100 µM, no meropenem",> 64 µg/mL
CC[C@H](C)[C@H](NC(=O)[C@@H](CCCNC(=N)N)NC(=O)[C@H](CCCNC(=N)N)NC(=O)[C@@H]1CCCN1C(=O)[C@@H]1CCCN1C(=O)[C@H](CCCNC(=N)N)NC(=O)[C@@H]1CCCN1C(=O)[C@H](CCCNC(=N)N)NC(=O)[C@@H]1CCCN1C(=O)[C@H](CC(C)C)NC(=O)[C@H](Cc1ccc(O)cc1)NC(=O)[C@H](Cc1c[nH]cn1)NC(=O)[C@@H]1CCCN1C(=O)[C@H](CCCCN)NC(=O)[C@H](CC(=O)O)NC(=O)[C@@H](N)C(C)C)C(=O)N[C@@H](Cc1ccc(O)cc1)C(=O)N[C@@H](CC(N)=O)C(=O)N[C@H](CCCNC(=N)N)C(N)=O,broth microdilution,ATCC 25922,"18 h, 37 °C, 25% MHB2",16 µg/mL
C=CCO/N=C(\C(=O)N[C@@H]1C(=O)N(OS(=O)(=O)O)C1(C)C)c1csc(N)n1,agar dilution,"CDC 1001728, NDM-1",,4 µg/mL
CC[C@H](C)[C@H](NC(=O)[C@@H](CCCNC(=N)N)NC(=O)[C@H](CCCNC(=N)N)NC(=O)[C@@H]1CCCN1C(=O)[C@@H]1CCCN1C(=O)[C@H](CCCCNC(=N)N)NC(=O)[C@@H]1CCCN1C(=O)[C@H](CCCNC(=N)N)NC(=O)[C@@H]1CCCN1C(=O)[C@H](CC(C)C)NC(=O)[C@H](Cc1ccc(O)cc1)NC(=O)[C@@H]1CCCN1C(=O)[C@@H]1CCCN1C(=O)[C@H](CCCCN)NC(=O)[C@H](CC(=O)O)NC(=O)[C@@H](N)C(C)C)C(=O)N[C@@H](Cc1ccc(O)cc1)C(=O)N[C@@H](CC(N)=O)C(=O)N[C@H](CCCNC(=N)N)C(N)=O,broth microdilution,MC4100,"18 h, 37 °C, 25% MHB2",4 µg/mL
C[C@@H](O)[C@H](NC(=O)[C@H](Cc1c[nH]c2ccccc12)NC(=O)[C@H](CCCNC(=N)N)NC(=O)[C@H](Cc1c[nH]c2ccccc12)NC(=O)[C@H](CCCNC(=N)N)NC(=O)CNC(=O)[C@@H](NC(=O)[C@H](CCCNC(=N)N)NC(=O)[C@H](CCCNC(=N)N)NC(=O)[C@H](CC(N)=O)NC(=O)[C@H](Cc1c[nH]c2ccccc12)NC(=O)[C@H](CCCNC(=N)N)NC(=O)[C@H](Cc1c[nH]c2ccccc12)NC(=O)c1ccccc1)[C@@H](C)O)C(=O)NCC(=O)N1CCC[C@H]1C(N)=O,,DH5α,"16 h, 37 °C",50 µM
CC(=O)N[C@H](Cc1cccc(F)c1)C(=O)N[C@@H](CCN)C(=O)N[C@H](C(=O)N[C@@H](CCN)C(=O)N[C@H]1CCNC(=O)[C@H]([C@@H](C)O)NC(=O)[C@H](CCN)NC(=O)[C@H](CCN)NC(=O)[C@H](CC(C)C)NC(=O)[C@@H](Cc2ccccc2)NC(=O)[C@H](CCN)NC1=O)[C@@H](C)O,broth microdilution,"ATCC 25922, colistin-susceptible",,0.25 to 0.5 µg/mL
CC[C@H](C)[C@H](NC(=O)[C@@H](CCCNC(=N)N)NC(=O)[C@H](CCCNC(=N)N)NC(=O)[C@H](Cc1c[nH]cn1)NC(=O)[C@H](Cc1c[nH]c2ccccc12)NC(=O)[C@H](CCCNC(=N)N)NC(=O)[C@@H]1CCCN1C(=O)[C@H](CCCNC(=N)N)NC(=O)[C@@H]1CCCN1C(=O)[C@H](CC(C)C)NC(=O)[C@H](Cc1ccc(O)cc1)NC(=O)[C@@H]1CCCN1C(=O)[C@@H]1CCCN1C(=O)[C@H](CCCCN)NC(=O)[C@H](CC(=O)O)NC(=O)[C@@H](N)C(C)C)C(=O)N[C@@H](Cc1ccc(O)cc1)C(=O)N[C@@H](CC(N)=O)C(=O)N[C@H](CCCNC(=N)N)C(N)=O,broth microdilution,ATCC 25922,"18 h, 37 °C, 25% MHB2",16 µg/mL
CSCC[C@H](NC=O)C(=O)N[C@@H](CCCNC(=N)N)C(=O)N[C@H](C(=O)NCC(=O)N[C@@H](CC(N)=O)C(=O)N[C@@H](C)C(=O)N[C@@H](CC(N)=O)C(=O)NCC(=O)N1CCN(c2cc3c(cc2F)c(=O)c(C(=O)O)cn3C2CC2)CC1)[C@@H](C)O,broth dilution,K12 MG1655 efflux knock-out,,0.78 µM
CC[C@H](C)[C@H](NC(=O)[C@H](CCCNC(=N)N)NC(=O)[C@H](CCCCN)NC(=O)[C@H](CC(C)C)NC(=O)[C@H](CC(C)C)NC(=O)CNC(=O)CCCCCNC(=O)CCCC[C@@H]1SC[C@@H]2NC(=O)N[C@@H]21)C(=O)N[C@@H](CCCCN)C(=O)N[C@H](C(=O)N[C@@H](CC(C)C)C(=O)N[C@@H](CC(C)C)C(=O)O)[C@@H](C)O,broth microdilution,"M/14072, Mueller-Hinton broth",,> 160 µM
CC1(C)[C@H](NC(=O)/C(=N\OCc2c(Cl)cccc2Cl)c2nsc(N)n2)C(=O)N1OS(=O)(=O)O,agar dilution,"08-85, mcr-1",,16 µg/mL
CO[C@@H](C(N)=O)[C@H](NC(=O)c1ccc(NC(=O)[C@@H](N)Cc2ccccc2)cc1)C(=O)Nc1ccc(C(=O)Nc2ccc(C(=O)Nc3ccc(C(=O)O)c(O)c3OC(C)C)c(O)c2OC(C)C)cc1,,glutathione S-transferase-like clone,"16 h, 37 °C",0.031 µg/mL
